Experimental data collected from several papers.
A part holds a random share of what one study measured.

Set 1
Target: Histone acetyltransferase KAT6A, winged helix 1, GST fusion (KAT6A, Homo sapiens, UniProt Q92794, residues 1-85)
Method: protein binding microarray
Molecule type: double-stranded DNA, one strand shown
Medium: in vitro
Concentration: not given
Notes: 8-mer, flanks averaged, mean of 2 arrays, mostly near background
Relative to: not given
Direction: higher = stronger binding
Construct (chain): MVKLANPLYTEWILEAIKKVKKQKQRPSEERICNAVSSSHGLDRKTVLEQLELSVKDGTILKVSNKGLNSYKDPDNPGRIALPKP
| Sequence | E-score |
| --- | --- |
| ATAGCAGC | -0.194 |
| ATCAGCTG | -0.103 |
| GCCCCCGC | 0.395 |
| GCTATACA | 0.00588 |
| GGCCCGAA | 0.156 |
| CTTATAGC | 0.0824 |
| TACGAGCA | -0.13 |

Set 2
Target: Probable WRKY transcription factor 33, N-terminal DNA-binding domain (WRKY33, Arabidopsis thaliana, UniProt Q8S8P5, residues 169-264)
Method: DNA-protein interaction ELISA
Molecule type: double-stranded DNA, one strand shown
Medium: in vitro, bacterial lysate
Concentration: not given
Notes: whole dsDNA probe, crude lysate protein
Relative to: highest signal in screen
Direction: higher = stronger binding
Construct (chain): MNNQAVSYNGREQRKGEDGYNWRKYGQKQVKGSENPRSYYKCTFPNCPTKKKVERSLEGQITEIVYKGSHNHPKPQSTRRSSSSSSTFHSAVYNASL
| Sequence | relative absorbance |
| --- | --- |
| AAAAAAAGCTTCTATAGCTCCATGGAAAA | 21.8 % of maximum |
| AAAAAAATGATTGCCAATGCTCGCAAAAAA | 15.9 % of maximum |
| AAAAAAAGTTACCAGTACGCGTCGGGAAAA | 22 % of maximum |
| AAAAAAGGGTTTGTCGGGAATTGCCGAAAA | 20.3 % of maximum |
| AAAAAAATCTTTGCGTCGAGATTCTTAAAA | 24.6 % of maximum |
| AAAAAAATCGTTGTTATCGTATTTATAAAA | 17.8 % of maximum |
| AAAAAAATTCGCAACCCTCACGTTCGAAAA | 22.6 % of maximum |
| AAAAAACTTGCTCCTCCGTTTTACTCAAAA | 21.9 % of maximum |
| AAAAAATTCTTACTTTTGTCTTTACTAAAA | 32.2 % of maximum |

Set 3
Target: Fragile X messenger ribonucleoprotein 1, C-terminal low-complexity region (Fmr1, Mus musculus, UniProt P35922)
Method: RNA Bind-n-Seq
Molecule type: RNA
Medium: in vitro
Concentration: 200 nM
Notes: whole 134-nt RNA, ends assumed
Added: 150 mM KCl
Relative to: input library
Direction: higher = stronger binding
| Sequence | log2 enrichment |
| --- | --- |
| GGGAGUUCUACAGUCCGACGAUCUGGCCCUGGUGGCAUGCGGGGAGGAAGAGGUGGGCUCAUGGAUCGUGGUGGUCCCGGUGGAAUGUUCAGAGGUGGCCGUGGUGGAGACAGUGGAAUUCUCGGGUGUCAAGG | 0.505 |
| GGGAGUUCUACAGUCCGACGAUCCAAGUCCUGUGCUACACAUCGUAUGUACCGAAUCGGUUUGGGGUUUGGGGUUUGGGAAAGUAUUAUGUUACGCCGUUCGGAUCUGCACUUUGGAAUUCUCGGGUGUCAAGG | 0.102 |
| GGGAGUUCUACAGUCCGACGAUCAGUCCUGUGCUACACAUCGUAUGUACCGAAUCGGCCCCCGGGGCCCCCGGGCCCCCGGAAAGUAUUAUGUUACGCCGUUCGGAUCUGCACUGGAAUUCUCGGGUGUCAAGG | -0.417 |
| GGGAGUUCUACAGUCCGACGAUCUGGGAGGUGGAUUUUGUUUAUUUUUUUAGCUCAUUUCCAGGGGUGGGAAGUUUUUUUUAAUAUGUGUCAUGAAUAAAGUUGUUUUUGAAAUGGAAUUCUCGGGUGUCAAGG | 0.459 |
| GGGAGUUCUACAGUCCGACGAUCUGGUAUUCAUGGGUAGUUUGAAAUAUCCAGAUGAGAAUGGAUUUGAUGCCUUCCUGAAGAAGCAUGGGGGUAGUGAUAAUGCCUCAACUGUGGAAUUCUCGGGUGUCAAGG | -1.09 |
| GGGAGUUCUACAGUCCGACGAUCUGAGAAACUUGCUCAAAUAUUGGCAGCUAGACAGUUAGAAAUUAAACAGAUUCCAUCUGAUGGCCACUGUAUGUAUAAAGCCAUUGAAGAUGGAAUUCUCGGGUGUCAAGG | -0.888 |
| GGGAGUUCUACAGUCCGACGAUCUGGGAGGUGGAUUUUGUUUAUUUUUUUAGCUCAUUUCCAGGGGUGGGAAUUUUUUUUUAAUGUGUGUCAUGAAUAAAGUUGUUUUUGAAAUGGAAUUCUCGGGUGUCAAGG | 0.363 |
| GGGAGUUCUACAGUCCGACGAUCCUCAAGUCCUGUGCUACACAUCGUAUGUACCGAAUCGGUUUUUGGUUUGGUGGAAAGUAUUAUGUUACGCCGUUCGGAUCUGCACUUCCAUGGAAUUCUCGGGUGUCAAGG | -0.411 |

Single results of other studies
| Substance | target | test | test system | setting | scale | measurement | value |
| --- | --- | --- | --- | --- | --- | --- | --- |
| PhoQ, residues 284 288 289 292 302 303 TLASMF | PhoP, residues 12 14 15 18 19 LHHSG (Escherichia coli, UniProt P23836) | Sort-seq, measured: YFP reporter | E. coli | PhoQ-PhoP variant library, added: 10 µM Mg2+ | relative to: high Mg2+ state, higher = stronger signaling | fold induction | 1.09 |
